Results collected from several papers.
Each numbered part is a random draw from the data of one study; scales do not carry over between parts. Substitutions count along the parent as printed.

Set 1
Target: Interferon regulatory factor 5, full length, phosphomimetic (IRF5, Homo sapiens, UniProt Q13568-2, residues 1-514, S451D/S453D/S456D/S462D)
Technique: protein-binding microarray
Form: double-stranded DNA, one strand shown
Matrix: in vitro
Tested at: 940 nM top
Setting: 60-bp whole probe
Together with: salmon DNA 0.4 mg/ml
Reference: random background probes
Direction: higher = stronger binding
Endpoint: fitted relative affinity
Shared flanks, not repeated: GCCTAGCAC … GTCTTGATTCGCTTGACGCTGCTG
CTTTCTGTCAGTTTTGAGCTGTGCTAG: 1.34 z-score
TTAAATTTCAGTTCCGATTAGTGCTAG: 1.69 z-score
GACGTACTGCTACTGCTGACGTGCTAG: -0.456 z-score
TTGGAACTGGGGACTGGATTAGTGCTA: -0.332 z-score
GACCAACTGAGTTTCGAGACGTGCTAG: 3.47 z-score
ATGTAATTCCTGCCTGAGCTCGTGCTA: 0.019 z-score
TTAGGAGTGCTTATCCTTTAGTGCTAG: -0.397 z-score
TCATCTTTCACTGGTCCTACTGTGCTA: 1.37 z-score

Set 2
Target: Hepatocyte nuclear factor 3-alpha (Foxa1, Mus musculus, UniProt P35582, residues 1-468, full length assumed)
Technique: EMSA with sequencing
Form: double-stranded DNA, one strand shown
Matrix: in vitro
Tested at: 10 and 20 nM
Setting: whole designed probe, mean of two concentrations, ends assumed
Reference: negative control set to 0
Direction: higher = stronger binding
Endpoint: normalised bound fraction
Target sequence (chain): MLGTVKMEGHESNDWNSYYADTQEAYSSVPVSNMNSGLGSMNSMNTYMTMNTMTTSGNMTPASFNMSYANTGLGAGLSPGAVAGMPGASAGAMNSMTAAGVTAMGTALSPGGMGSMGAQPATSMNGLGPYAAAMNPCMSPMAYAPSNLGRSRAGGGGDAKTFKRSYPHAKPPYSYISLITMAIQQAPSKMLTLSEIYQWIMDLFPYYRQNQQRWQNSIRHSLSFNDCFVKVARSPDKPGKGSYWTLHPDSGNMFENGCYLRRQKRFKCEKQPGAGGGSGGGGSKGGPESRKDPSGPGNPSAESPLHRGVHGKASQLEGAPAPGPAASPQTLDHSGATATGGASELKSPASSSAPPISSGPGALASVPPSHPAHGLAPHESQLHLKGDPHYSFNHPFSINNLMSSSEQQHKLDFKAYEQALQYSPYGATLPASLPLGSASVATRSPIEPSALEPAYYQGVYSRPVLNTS
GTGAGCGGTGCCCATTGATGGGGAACCTCCAGGGTAGTTGTCCTTCCTGTGGCTGCTCACTGATCCAGGCTACTTTGATCTTGTGACTCAAAGTTCAACAAAATGTGGATGCGTCATTTTATTTACACTTCAATCTTACGAAATGGCCAGAAGGCCTCATCCAGTTGCAAGAAGTTTGGGAAATGTAGCCTTCCATATTTACAGGAATAAATGAAAAACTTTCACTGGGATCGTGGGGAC: 0.293 ratio
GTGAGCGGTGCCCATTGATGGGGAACATCTTCCCCCTCTTCCTTGCCCCACCAGCTCACCTTCCCGGGTTATTTGCAGATAGGAAAATAAATAAAGCCGGCATTCGTTAACCCTCTTCACGCGCATACTGCTGTTTGCTCTGCATCTAACATGGTCCTTACGCGAGGCGTGGCTCCGGGAGAGCAAAGCACCGTGTCAGGCGCATGATCCGGGCTCGCCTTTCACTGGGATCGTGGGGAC: 0.355 ratio
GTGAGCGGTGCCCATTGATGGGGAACTGGGCTTCGTATAATTACAATTCGTAAAATCAGTTGGCCTAATACTGTCTGAATAAACTTTTATTTAAAAAAAGAAAAAACGAAAATGTTATATGTAAACAGGGACTCTGGGAAGATATGAAGAGTTGGTAGTCTCCACTCTCATAGAAAACAAAGCCCGAAGAGGCAGGGGTGGGAGGAGTCCTAAAGAAGATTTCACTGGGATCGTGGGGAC: 0.242 ratio
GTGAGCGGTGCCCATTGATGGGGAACGAAGGAAATAATGGAGCCAACCATGCATATAACCTCAGGGAGAACATTCTAGGTAGAGGGAACAGCAAGTGCAAAGGCCCTGAAGTGGGGGTTTGTTTACCTTGATGCACATTCTGCACACAGGCCAGTACAATTGGAATGGATGGGAAATGTAAAAGAGAGAAGTTGAAAAGGCCAGGTGCAGTGGCTCATGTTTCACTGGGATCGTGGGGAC: 0.403 ratio
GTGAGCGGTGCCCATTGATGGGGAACTACACACGTATAAAAATGCTGCATGGGTGAGTGTGACATAGGCAAGCTCTTTAACAGGTGAAGCATCAGAGACTCCTGCTAACCTGGGAGAAAGCAAACAGCCACAGGGAGAGAACAGGGCCACGTGGAAGGGACCTGAGGACGACCTCTAGGAGTTGAGTGGGGTTTCCTGCTGACAGCTAGCAGGAAAATATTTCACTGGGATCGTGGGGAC: 0.0956 ratio
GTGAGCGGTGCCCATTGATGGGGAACCCATCTCAGCTGAGGGTACTATCATCCACCCTGTGGCCACATCCAGGAATGTGTGTATCACCTGGGCTCTGAGGATGACATCAGCTCTTCTAAGTCATCTGAATGTCGGGTCTGTTCTAAAAGTCTCATCTGACAAGGAGATCTTTAAGGCTTTACTCCCTTAAAGGCTTTACTCCCATCATGATGGGATAACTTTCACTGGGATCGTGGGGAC: -0.0816 ratio
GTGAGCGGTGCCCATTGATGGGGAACATATTTTACATACGTGTATTAAATATATATATATATAAATGTCTCCTGTTCTTTTTCAGTAATCATAGTGTTTTTACAATTATCTGTTACTATGTAAACATTTATTTCAAGGCATTGGTCACGTTACCTACCTACTCTTCCAGGGAATGGACATGCAGATTGCCTTCATACCCTCCCACCACAGGAAATGCTGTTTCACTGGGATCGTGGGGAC: 0.496 ratio
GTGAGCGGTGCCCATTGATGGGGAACATCTTCCCCCTCTTCCTTGCCCCACCAGCTCACCTTCCCGGGTATATTGGAGATAGTATTTATTTTCAAGCCGGCATTCGTTAACCCTCTTCTGGCGCAAACTGCACATTGGTCTGGATGAATCATGGTCCTTTGGCGACGCCAGGCTCCGGGAGAGCAAAGCACCGTGTCAGGGCCATGATCCGGGGTGGCCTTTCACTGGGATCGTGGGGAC: 0.115 ratio

Set 3
Target: CRIPT, C-terminal peptide
Technique: DHFR complementation, deep sequencing
Matrix: yeast
Setting: single substitutions, model-inferred values
Reference: wild type
Direction: higher = weaker binding
Endpoint: binding free energy change
Starting sequence: ERBIN, PDZ domain 1 (human); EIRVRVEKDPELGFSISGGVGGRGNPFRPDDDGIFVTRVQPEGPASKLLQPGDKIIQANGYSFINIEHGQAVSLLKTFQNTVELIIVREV; partner TKNYKQTSV
R38I: 0.126 kcal/mol
K8R: 0.373 kcal/mol
P10D: -0.294 kcal/mol
P26L: 1.02 kcal/mol
V72L: 1.54 kcal/mol
L48S: 0.174 kcal/mol
L74T: 0.00428 kcal/mol
G13W: 1.26 kcal/mol

Other studies, line by line
CN(C)CCN(Cc1ccccc1)c1ccccn1  infection rate (Plasmodium berghei; inhibitor; Huh-7, GFP-expressing, liver stage; 10 µM, 24 h; reference: untreated control): 65%

Some of these lines once more (set 1):
GACGTACTGCTACTGCTGACGTGCTAG: -0.456 z-score
TTGGAACTGGGGACTGGATTAGTGCTA: -0.332 z-score
GACCAACTGAGTTTCGAGACGTGCTAG: 3.47 z-score
